Assay results collected from several papers.
A part holds a random share of what one study measured.

Study 1
Target: Hepatocyte nuclear factor 3-alpha (Foxa1, Mus musculus, UniProt P35582, residues 1-468, full length assumed)
Chain of UniProt P35582 (whole entry, looked up): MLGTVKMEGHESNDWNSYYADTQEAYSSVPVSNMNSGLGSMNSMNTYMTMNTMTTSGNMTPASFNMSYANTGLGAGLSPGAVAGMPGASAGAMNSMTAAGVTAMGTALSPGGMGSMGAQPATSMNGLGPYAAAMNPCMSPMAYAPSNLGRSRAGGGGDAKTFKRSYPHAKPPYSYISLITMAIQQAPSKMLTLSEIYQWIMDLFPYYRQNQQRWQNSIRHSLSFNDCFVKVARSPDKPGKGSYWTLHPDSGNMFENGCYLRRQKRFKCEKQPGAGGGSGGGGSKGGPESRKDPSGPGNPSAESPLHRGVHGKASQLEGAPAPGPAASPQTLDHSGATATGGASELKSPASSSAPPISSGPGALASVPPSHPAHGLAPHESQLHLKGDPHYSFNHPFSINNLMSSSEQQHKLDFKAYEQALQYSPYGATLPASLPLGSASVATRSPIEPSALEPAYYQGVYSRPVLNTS
Method: EMSA with sequencing
Molecule type: double-stranded DNA, one strand shown
Medium: in vitro
Concentration: 10 and 20 nM
Setting: whole designed probe, mean of two concentrations, ends assumed
Reference: negative control set to 0
Direction: higher = stronger binding
Measurement: normalised bound fraction
Constant ends, left off below: GTGAGCGGTGCCCATTGATGGGGAAC … TTTCACTGGGATCGTGGGGAC
Sequence = TTCTGGACGCTGTGAAGAAAACAAAACAATGGACTGTCTTTTAATCGTCCTTAAATAGCTCAGTAAAATTTAAACAATGCTTGCATTCTCTGTGTAAACACAGTGACTGATGCCGAGGCCCCTAGGACTGCTTGGAGCTAATGGGATTAATAAGAATGCCTGAGGGTAACATCTATCACAAATTAATGTTTCC; result = 0.397 ratio
Sequence = GACAGTACATGTTTTAGGATTTTTGGACCACACAGTCTCTGTCACAATGACTCAGCTTTGCCATTGTAGCGTGCAAACAGCCACAAACCATATGCAAACAAATGGAGGGTGTGGTTATGCCAATAAAACTTTATTTACAAAAGCAGGAGGACAGTGGAGTTGGCTTGCAGACAGTCATTTGCAGAGCCCTGAT; result = 0.462 ratio
Sequence = GAAATAAAATGCGATCACTTTTCACAATGATTCTTGGAGAAACCACATAATGGCTAAAGCAGCCTAAAATTACTTGGGATAGGTTAAATAAAGTAAACATGGCTTATTAGATTTCCATAGAGTTAATAGTCTACATAGTCTAATGTTTTATAGACAAAACCTCTGTCATTCTGTTTTATAGAGTAACTCCTAC; result = 0.395 ratio
Sequence = TCCGGTTGGGAGCTTCTTCACTAAATGAGAGAATGTTTGAAATATCAAATAGAGTACAATAGTACATAGCATATCCTAAATGATAGGGTACAAAGTAAACAAGTTAAAAGTAAATGTGTAGCTCTAGGATCAAGCCAAACAAAGCTATTTAAAACCTAAACTTAAAATGAAGGGGATGAATTAGTCTAGATCT; result = 0.479 ratio
Sequence = CTTTAAGGATTTCAATGTTATAAATAAAAGCTAAGTCCACTGTCATTCATTTTTTATGTCCTACAACAAGGTTACAAAATTAAAATCATATAAAGTAATCTTGAAGAGGAAAAGCTTGATCTACTCAATGCATCCACTTCTTCCCAGTTCTCCCCATCCTCTGCCAAGTTGTACCAGGGAGAGTGAAGGAGAA; result = -0.068 ratio
Sequence = ATATAGAAAGAGAAAAATTTTAGAAGGCTATGCATCAAAATATTGAGATTGGTTTGCTCTAGATTATAGCAGTCTTGCTTATCTTTTTTGCATGTTTACATTTTCAAAATTTTTCGTAATAAAAAATTGTTTCACTTTAAACACAGCTGAAAAGAGAATCTTTTGGCGTAAAGGAGGAGTATTTTAGGGGCTA; result = 0.258 ratio
Sequence = ATTTGTAATTCTATTGGCAAATCCTTCTTTAGAAATTTTCCATGACAGACACGATGCTACCTTTGAAATTATGTGAACCATAGCAAATCAAAGTAATCTAATAATTCATCAACCAAAATATCAAAGTCCAACTGCCACCATTTAATTAGGCACATTTCATTAACTTTAGGAGCTCCTGGCTTAACTAAGCCAA; result = -0.00927 ratio
Sequence = GTGTGTGCGCGCGCGTGTGTGTGTGTTTTCTTAAGCCGGGCTATTCAAACCCTGCTGCAATTCTCCGGTACAATGATTCATAAGGGGCACGTTTATTTGCATTAGATTGCAAACGGCGCGGTTCGCGCACTTTGCAGCCGGCCCGGTGGAGCAGCCAGTGCCGGATTTCTCCCTTTTTTTGCAGATCTGCAGA; result = 0.434 ratio

Study 2
Target: Interferon regulatory factor 5, full length, phosphomimetic (IRF5, Homo sapiens, UniProt Q13568-2, residues 1-514, S451D/S453D/S456D/S462D)
Method: protein-binding microarray
Molecule type: double-stranded DNA, one strand shown
Medium: in vitro
Concentration: 940 nM top
Setting: 60-bp whole probe
Together with: salmon DNA 0.4 mg/ml
Reference: random background probes
Direction: higher = stronger binding
Measurement: fitted relative affinity
Constant ends, left off below: GCCTAGCAC … GTCTTGATTCGCTTGACGCTGCTG
Sequence = TTCTCTTTCACTACTCCATTGTGCTAG; result = 3.58 z-score
Sequence = GACGAACTAAGACTGGAGACGTGCTAG; result = -0.883 z-score
Sequence = CCCAATAATCTTTTCACTTTGTGCTAG; result = 1.55 z-score
Sequence = GACGGTTTCGGTTTCGGGATGTGCTAG; result = 13.5 z-score
Sequence = TCATTTCTCTTTCACTGACTGTGCTAG; result = 2.08 z-score
Sequence = TTAGATTTTAGTCTCGATTAGTGCTAG; result = 4.71 z-score
Sequence = TAAGGACTGGGTCTCGGTTAGTGCTAG; result = 1.68 z-score
Sequence = CCTAATCTCAGCCTCCGTCAGTGCTAG; result = 0.869 z-score
Sequence = TCAGTTATCCATCTCAAACTGTGCTAG; result = 0.52 z-score
Sequence = TTAGTTTTCAATTTTTGCATGTGCTAG; result = 1.02 z-score
Sequence = GACGGACTGCTTATCGTGACGTGCTAG; result = -0.278 z-score
Sequence = AATCATTTTCGTTTTTATTAGTGCTAG; result = 2.88 z-score
Sequence = CCCTGCGTGGTCTCGAGCTGGTGCTAG; result = -0.535 z-score
Sequence = TCAAAAATCATTTTCTCACTGTGCTAG; result = 0.414 z-score
Sequence = TTAGAACTGGAGTTTCGATTAGTGCTA; result = 5.43 z-score
Sequence = GACGATTTCGGGTATCAAGACGTGCTA; result = 0.724 z-score
Sequence = GACGATTTCTGTCTCGAGACGTGCTAG; result = 1.76 z-score
Sequence = CCAACTCGCCTTTTTTGTTGGTGCTAG; result = 0.763 z-score

Study 3
Target: UBE2Q2 UBC core domain (UniProt Q8WVN8)
Chain of UniProt Q8WVN8 (whole entry, looked up): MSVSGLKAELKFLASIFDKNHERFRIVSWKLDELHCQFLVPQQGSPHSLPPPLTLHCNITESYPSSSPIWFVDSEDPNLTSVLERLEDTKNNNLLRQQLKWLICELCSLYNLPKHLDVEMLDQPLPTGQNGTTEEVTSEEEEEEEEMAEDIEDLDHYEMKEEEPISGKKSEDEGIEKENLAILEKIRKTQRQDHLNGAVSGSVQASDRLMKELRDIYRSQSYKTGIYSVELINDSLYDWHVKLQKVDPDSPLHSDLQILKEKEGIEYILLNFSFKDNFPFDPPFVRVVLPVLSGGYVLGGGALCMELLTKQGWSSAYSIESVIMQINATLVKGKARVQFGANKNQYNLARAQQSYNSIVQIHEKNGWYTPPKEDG
Method: yeast two-hybrid
Medium: yeast
Setting: mostly zero background
Reference: not given
Direction: higher = stronger interaction
Measurement: lacZ reporter activity
B1: MDM4 RING domain (UniProt O15151); chain MEDCQNLLKPCSLCEKRPRDGNIIHGRTGHLVTCFHCARRLKKAGASCPICKKEIQLVIKVF
B2: SH3RF1 RING domain (UniProt Q7Z6J0); chain DESALLDLLECPVCLERLDASAKVLPCQHTFCKRCLLGIVGSRNELRCPECRTLVGSGVEEL
B3: DTX2 RING domain (UniProt Q86UW9); chain EELKVPPDEDCIICMEKLSTASGYSDVTDSKAIGSLAVGHLTKCSHAFHLLCLLAMYCNGNKDGSLQCPSCKTIYGEKTGTQ
B4: DZIP3 RING domain (UniProt Q86Y13); chain PDEEEEEEEPCVICHENLSPENLSVLPCAHKFHAQCIRPWLMQQGTCPTCRLHVLLPEEFP
B5: RNF121 RING domain (UniProt Q9H920); chain MPTKHLSDSVCAVCGQQIFVDVSEEGIIENTYRLSCNHVFHEFCIRGWCIVGKKQTCPYCKEKVDLKRMFS
B6: RFWD3 RING domain (UniProt Q6PCD5); chain ASMDEEEGDTCTICLEQWTNAGDHRLSALRCGHLFGYRCISTWLKGQVRKCPQCNKKARHSDIVV
Molecule = B1 (MDM4 RING domain); result = 0
Molecule = AMYLQENGIDCPKCKFSYALARGGCMHFHCTQCRHQFCSGCYNAFYAKNKC (RNF31 RING domain (UniProt Q96EP0)); result = 0
Molecule = YQNEVDDDLVCHICLQPLLQPLDTPCGHTFCYKCLRNFLQEKDFCPLDRKRLHFKLCKK (LNX2 RING domain (UniProt Q8N448)); result = 0
Molecule = PEDRESLKSACVVCLSSFKSCVFLECGHVCSCTECYRALPEPKKCPICRQAITRVIPLY (MUL1 RING domain (UniProt Q969V5)); result = 0
Molecule = B2 (SH3RF1 RING domain); result = 0
Molecule = KETIKKTTKPCPRCHVPVEKNGGCMHMKCPQPQCRLEWCWNCGCEWNRVCMG (PRKN RING domain (UniProt O60260)); result = 0
Molecule = B3 (DTX2 RING domain); result = 0
Molecule = B4 (DZIP3 RING domain); result = 0
Molecule = B5 (RNF121 RING domain); result = 0
Molecule = GSDDEEIPFKCFICRQSFQNPVVTKCRHYFCESCALQHFRTTPRCYVCDQQTNGVFNPA (RNF113A RING domain (UniProt O15541)); result = 0
Molecule = B6 (RFWD3 RING domain); result = 0
Molecule = NLSELTPYILCSICKGYLIDATTITECLHTFCKSCIVRHFYYSNRCPKCNIVVHQTQPLY (PCGF6 RING domain (UniProt Q9BYE7)); result = 0

Study 4
Target: Histone acetyltransferase KAT6A, winged helix 2, GST fusion (KAT6A, Homo sapiens, UniProt Q92794, residues 85-181)
Method: protein binding microarray
Molecule type: double-stranded DNA, one strand shown
Medium: in vitro
Concentration: not given
Setting: 8-mer, flanks averaged, mean of 2 arrays, mostly near background
Reference: not given
Direction: higher = stronger binding
Measurement: E-score
Target sequence (chain): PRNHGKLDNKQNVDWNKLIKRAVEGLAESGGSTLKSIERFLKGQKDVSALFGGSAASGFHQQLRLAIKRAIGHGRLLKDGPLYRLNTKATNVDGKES
Sequence = GAAATAAA; result = 0.134
Sequence = ATGGGTTA; result = -0.0633
Sequence = AAGCCCTG; result = 0.0743
Sequence = AATGAATC; result = -0.0143
Sequence = TATATGAA; result = 0.035
Sequence = GCGAGTAC; result = 0.0524
Sequence = CAGATAGC; result = 0.00571
Sequence = AGGAGGCA; result = -0.00344
Sequence = CCAGTGCG; result = 0.178
Sequence = AGTGGCTC; result = -0.11
Sequence = ATAGGAAT; result = -0.0106
Sequence = AAGACACT; result = -0.00566
Sequence = AGGTGTAA; result = -0.119
Sequence = ATCTCGGA; result = 0.168
Sequence = ACTCAACG; result = -0.0771
Sequence = CCTTATGC; result = 0.033
Sequence = CACCCGGA; result = 0.192
Sequence = GAGAATTA; result = 0.0138
Sequence = CGTGTGCC; result = 0.00411
Sequence = GCTCGAAA; result = 0.0221
Sequence = AGGTGGGA; result = 0.0892
Sequence = CCTCTGAG; result = 0.0295
Sequence = GCTAGTTA; result = -0.0883
Sequence = ATTGTACG; result = -0.137
Sequence = ACACCTCT; result = -0.143

Study 5
Target: RING finger protein unkempt homolog, zinc fingers 1-6, GST-SBP tag (UNK, Homo sapiens, UniProt Q9C0B0, residues 30-357)
Chain of UniProt Q9C0B0 (30-357, looked up): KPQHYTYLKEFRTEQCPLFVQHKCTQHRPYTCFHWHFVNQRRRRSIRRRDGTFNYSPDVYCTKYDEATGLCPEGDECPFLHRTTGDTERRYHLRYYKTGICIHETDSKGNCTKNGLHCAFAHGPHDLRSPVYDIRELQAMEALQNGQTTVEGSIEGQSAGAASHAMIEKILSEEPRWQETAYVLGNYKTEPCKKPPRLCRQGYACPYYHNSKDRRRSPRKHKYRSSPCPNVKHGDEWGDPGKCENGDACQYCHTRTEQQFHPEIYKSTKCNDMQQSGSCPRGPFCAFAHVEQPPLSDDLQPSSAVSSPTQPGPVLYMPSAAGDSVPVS
Method: RNA Bind-n-Seq
Molecule type: RNA
Medium: in vitro
Concentration: not given
Setting: RNA with constant flanks, human-mouse chimeric sites, ends assumed
Reference: input RNA pool
Direction: higher = stronger binding
Measurement: bound/input enrichment
Constant ends, left off below: GGGAGUUCUACAGUCCGACGAUC … CAACAGAGGAUUGAGCAUCA
Sequence = CGGAAGUUCUUGAUUUAUCAUUUUUCUCUUUUCUUUCUUUCCUUUAGGAAAAGCCUAAAGAUUAGGUUGUAAGAAAAGAAAAUAGAAUGUUUCGAAGACCUGUGUUACAGGUAUUUCGUC; result = 0.339 ratio
Sequence = AUGGAGAAGGAUUCUCUGCCCCGCUUUGUGCGCUCUGAAUUUUAUAAGGAGCUAAUCAAGUAGUCAUCUGGUCAGGCUUCCAAAAGUUCCUGUGAGUGUUGAGUUACAUAAUAACCCGCA; result = 0.184 ratio
Sequence = AUUGUUGAAGCGAAUCCACUUUUAGAAGCCUUUGGAAAUGCAAAGACUGUUCGCAACAAUAAUAGCAGUCGAUUUGGAAAAUUUGUAGAAAUUCAUUUCAAUGAAAAGAGCUCAGUUGUU; result = 0.166 ratio
Sequence = AGAAAGCAAAACUUGGAACGAUUUAAGAAAGGAGAUGUAAGAUUCUUGAUUUGCACAGAUGUAGCUGCUAGAGGGAUUGAUAUCCAUGGCGUUCCUUAUGUUAUAAACGUCACCCUGCCU; result = 0.299 ratio
Sequence = GCAGGAUCUUCUAAGUACCAGUGGGACAUUAUGAAAUCCCUUGGCCUCUCUGAUGACGACAUAGUGAAAUUUUCUGAAGCAGAGCACUGGCUUGAUUAUUUCCCACCACUGGCCGUUCAG; result = 0.22 ratio
Sequence = UCCCAAAUCCAGCAGCUAGAAGGAGCCUUGAGACAAACACUCCACACACAGGGAAGGCAAUAGCUUUGUACAUUGGUUUACAUUUUUCUCCUUGAAUGAUUUUUCUAGAGGUCAUAGUGC; result = 0.86 ratio
Sequence = UCCCAAAUCCAGCAGCUCCUUGAAAUAUUGAGACAAACACUCCACACGCAGGGAGGGCGAUAACAUUGUACAUUGGUUUACAUUUUUUCCCCCUGUGGAUUUUUCUAGAGGUCAUAGUGC; result = 0.51 ratio
Sequence = AGAGAUAAGACAUCCAGGAACAUGCGAGGCUCCCGGAUGAAUGGGUUGCCUAGCCCCACUCACAGCGCCCACUGUAGCUUCUACAGAACCAGAACCUUGCAGGCAUUGAGUAAUGAGAAG; result = 0.124 ratio
Sequence = GGUGGGGUGGUCAUUGCCGUUUGAGCUGCUGAUUUUCAUGAGUCGCCUUCAAAACUCUCGUGUAGGGUUGACACUGUGGGGGGGUGGGAAAUCUAGCUUAUUCUUUUAUUUUCAAGUCCA; result = 5 ratio
Sequence = AAAGUGGACUAUGGCGAGUACAUGGAUAAAAACAAUGUGAGGCGACAAGCAACAACAAUCAUAGCUGAUAACAUUAUAUUUCUGAGUGACCAGACAAAAGAAAAGGCAUAGAACGGAUGA; result = 1.94 ratio
Sequence = CUUAAUGUUAAUAUUUUUGAAUAAAUGAAGCUAAAAUUUUGCUUUCUGGUACAACACGCAUUAAUAAAAGGUUAAGUUUUGUUUUCCCUCCACUGAAUAUUUAACAUCUCAGAAAAAAAC; result = 0.661 ratio

Some of these lines once more (study 2):
Sequence = CCTAATCTCAGCCTCCGTCAGTGCTAG; result = 0.869 z-score
Sequence = TCAGTTATCCATCTCAAACTGTGCTAG; result = 0.52 z-score
Sequence = TTAGTTTTCAATTTTTGCATGTGCTAG; result = 1.02 z-score
Sequence = GACGGACTGCTTATCGTGACGTGCTAG; result = -0.278 z-score
Sequence = AATCATTTTCGTTTTTATTAGTGCTAG; result = 2.88 z-score
